Published values of several laboratories.
Numbered parts are unrelated; each lists some results of a single study. Changes are numbered by the printed parent chain.

Set 1
Target: PABPC1L2, full length, GST fusion (mouse, UniProt A0ABA7IW68)
Technique: RNAcompete
Form: RNA
Medium: in vitro
Tested at: 20 nM
Notes: 7-mer, probes averaged, single round
Reference: mean of 7-mers
Reading: higher = stronger binding
Target sequence (chain): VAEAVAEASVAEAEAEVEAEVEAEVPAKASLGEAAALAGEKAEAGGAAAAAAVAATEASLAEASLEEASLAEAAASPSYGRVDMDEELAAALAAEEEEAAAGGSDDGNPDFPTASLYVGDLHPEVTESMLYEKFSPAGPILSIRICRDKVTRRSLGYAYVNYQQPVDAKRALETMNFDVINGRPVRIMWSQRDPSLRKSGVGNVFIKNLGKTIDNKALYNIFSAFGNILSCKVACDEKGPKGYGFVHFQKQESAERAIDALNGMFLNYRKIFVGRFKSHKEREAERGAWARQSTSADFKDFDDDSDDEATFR
With `GUUCUAU` the 7-mer Z-score was -0.329.
With `GCCGCCA` the 7-mer Z-score was -0.24.
The 7-mer Z-score of `UCUUAGG` is reported as -0.306.
With `UGCCCAG` the 7-mer Z-score was -0.284.
`AGUUCUU` gave a 7-mer Z-score of -0.275.
With `UCAACAG` the 7-mer Z-score was -0.208.
`UCCUAGG` has a 7-mer Z-score of -0.168.
`UGGCUCA` gave a 7-mer Z-score of -0.0573.
With `GAAACCA` the 7-mer Z-score was 0.115.
The 7-mer Z-score of `CAUCGUG` is reported as -0.208.
The 7-mer Z-score of `CCGGUCU` is reported as -0.331.
For `UACCAGA`, the 7-mer Z-score was 0.037.
`CGACCGC` gave a 7-mer Z-score of -0.2.
For `AUCAAGA`, the 7-mer Z-score was 0.229.
With `UCACCCG` the 7-mer Z-score was -0.407.
`GUUUGCU` gave a 7-mer Z-score of -0.456.
For `GGUUGAU`, the 7-mer Z-score was -0.0228.
The 7-mer Z-score of `GCUUGUC` is reported as -0.378.
The 7-mer Z-score of `UUUCAAU` is reported as -0.32.
`GCUUACA` gave a 7-mer Z-score of 0.00798.
For `UUGGUAU`, the 7-mer Z-score was 0.0243.
For `CUCAGGA`, the 7-mer Z-score was -0.0808.
`UUUGGAU` has a 7-mer Z-score of -0.126.
`UGUGCCU` has a 7-mer Z-score of -0.282.
`AGUCUUC` has a 7-mer Z-score of -0.409.

Set 2
Target: Histone acetyltransferase KAT6A, both winged helices, GST fusion (KAT6A, Homo sapiens, UniProt Q92794, residues 1-181)
Technique: protein binding microarray
Form: double-stranded DNA, one strand shown
Medium: in vitro
Tested at: not given
Notes: 8-mer, flanks averaged, mean of 2 arrays, mostly near background
Reference: not given
Reading: higher = stronger binding
Residues (chain): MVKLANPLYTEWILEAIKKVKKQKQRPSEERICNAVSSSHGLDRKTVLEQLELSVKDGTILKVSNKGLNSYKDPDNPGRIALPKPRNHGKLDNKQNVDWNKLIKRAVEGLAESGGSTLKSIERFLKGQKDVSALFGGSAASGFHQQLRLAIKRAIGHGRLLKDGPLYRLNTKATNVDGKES
The E-score of `CCGGACCC` is reported as 0.105.
`ACGACCTA` has an E-score of -0.0605.
With `GCCCAGGC` the E-score was -0.131.
`CAGAAATC` gave an E-score of -0.159.
For `AATAACCA`, the E-score was -0.185.
`ACGCAGAG` gave an E-score of -0.092.
`CCCAGACA` has an E-score of -0.231.
The E-score of `CGCCACGC` is reported as 0.24.
`ATTGGCAA` has an E-score of -0.196.
`ATGTCTAC` gave an E-score of -0.0528.
The E-score of `ACAACTGC` is reported as 0.0393.
For `ACATGAAT`, the E-score was -0.0882.
`AATAACTC` gave an E-score of -0.137.
For `ATTCACGC`, the E-score was 0.114.
`AGACTGTA` has an E-score of -0.0656.
For `CCTAATTC`, the E-score was -0.201.
With `CTCAGACC` the E-score was -0.0439.
For `TCGTGGCA`, the E-score was -0.186.
The E-score of `GAGTGAAC` is reported as -0.019.
`CACTAGGC` gave an E-score of -0.00533.
For `CTCAAACC`, the E-score was 0.0124.
`GGGGTTCA` gave an E-score of -0.0958.
`AACTACGG` gave an E-score of 0.171.
With `AGAACACG` the E-score was 0.0199.
`GGCCATAC` gave an E-score of -0.0111.

Set 3
Target: UBE2U UBC core domain (UniProt Q5VVX9)
UniProt Q5VVX9, sequence (whole entry, looked up): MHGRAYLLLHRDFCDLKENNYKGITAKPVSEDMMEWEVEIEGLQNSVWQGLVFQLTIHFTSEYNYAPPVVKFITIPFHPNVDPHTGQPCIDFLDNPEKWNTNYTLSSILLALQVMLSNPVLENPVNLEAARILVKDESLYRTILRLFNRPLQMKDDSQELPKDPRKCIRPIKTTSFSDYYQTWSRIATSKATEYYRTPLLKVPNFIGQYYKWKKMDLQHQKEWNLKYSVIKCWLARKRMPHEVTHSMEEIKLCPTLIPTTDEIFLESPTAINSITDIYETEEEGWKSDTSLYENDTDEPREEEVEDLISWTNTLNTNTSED
Technique: yeast two-hybrid
Medium: yeast
Notes: mostly zero background
Reference: not given
Reading: higher = stronger interaction
B1: RNF19A RING domain (UniProt Q9NV58); chain ISKQIGDFIECPLCLLRHSKDRFPDIMTCHHRSCVDCLRQYLRIEISESRVNISCPECTERFNPHDIR
B2: MDM4 RING domain (UniProt O15151); chain MEDCQNLLKPCSLCEKRPRDGNIIHGRTGHLVTCFHCARRLKKAGASCPICKKEIQLVIKVF
B3: MAP3K1 RING domain (UniProt Q13233); chain NSIKDEEEQMCPICLLGMLDEESLTVCEDGCRNKLHHHCMSIWAEECRRNREPLICPLCRSKWRSHDFYS
B4: UBOX5 RING domain (UniProt O94941); chain EQPGSILGPECASCKRVFSPYFKKEPVYQLPCGHLLCRPCLGEKQRSLPMTCTACQRPVASQDVLR
For `AMYLQENGIDCPKCKFSYALARGGCMHFHCTQCRHQFCSGCYNAFYAKNKC (RNF31 RING domain (UniProt Q96EP0))`, “lacZ reporter activity” read 2820.
For `B1 (RNF19A RING domain)`, “lacZ reporter activity” read 0.
`PEDRESLKSACVVCLSSFKSCVFLECGHVCSCTECYRALPEPKKCPICRQAITRVIPLY (MUL1 RING domain (UniProt Q969V5))` — result for “lacZ reporter activity”: 7170.
`NLSELTPYILCSICKGYLIDATTITECLHTFCKSCIVRHFYYSNRCPKCNIVVHQTQPLY (PCGF6 RING domain (UniProt Q9BYE7))` — result for “lacZ reporter activity”: 11000.
`GSDDEEIPFKCFICRQSFQNPVVTKCRHYFCESCALQHFRTTPRCYVCDQQTNGVFNPA (RNF113A RING domain (UniProt O15541))` — result for “lacZ reporter activity”: 9070.
For `KLRKLKEAMLCMVCCEEEINSTFCPCGHTVCCESCAAQLQSCPVCRSRVEHVQHVY (MYLIP RING domain (UniProt Q8WY64))`, “lacZ reporter activity” read 8230.
`B2 (MDM4 RING domain)` — result for “lacZ reporter activity”: 12500.
`GSRLQEINDVCAICYHEFTTSARITPCNHYFHALCLRKWLYIQDTCPMCHQKVYIEDDIK (RNF139 RING domain (UniProt Q8WU17))`: “lacZ reporter activity” 9470.
`B3 (MAP3K1 RING domain)`: “lacZ reporter activity” 10400.
`B4 (UBOX5 RING domain)`: “lacZ reporter activity” 7120.

Set 4
Target: RING finger protein unkempt homolog, zinc fingers 1-6, SBP tag (UNK, Homo sapiens, UniProt Q9C0B0, residues 30-357)
UniProt Q9C0B0, sequence (30-357, looked up): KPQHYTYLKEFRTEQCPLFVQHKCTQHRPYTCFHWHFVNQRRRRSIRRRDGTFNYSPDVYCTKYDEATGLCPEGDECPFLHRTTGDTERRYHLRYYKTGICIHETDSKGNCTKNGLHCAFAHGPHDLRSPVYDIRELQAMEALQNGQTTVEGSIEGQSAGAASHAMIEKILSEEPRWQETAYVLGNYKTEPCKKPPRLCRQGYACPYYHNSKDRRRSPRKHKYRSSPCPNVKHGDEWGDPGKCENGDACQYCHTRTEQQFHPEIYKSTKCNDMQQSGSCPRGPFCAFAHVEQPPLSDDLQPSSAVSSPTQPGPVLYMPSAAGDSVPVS
Technique: RNA Bind-n-Seq
Form: RNA
Medium: in vitro
Tested at: 100 nM
Notes: RNA with constant flanks, vertebrate orthologous sites, ends assumed
Reference: input RNA pool
Reading: higher = stronger binding
Constant ends, left off below: GGGAGUUCUACAGUCCGACGAUC … CAACAGAGGAUUGAGCAUCA
`GUGUUUUGUACAGGGCAUCAUCCUCUGUACAAGUUUGUGGUUAUAAAAUAAUUAGUAAAACAGCUUACAUUUGUAUUUAUUUUCUAGUCCAUACUUCUGUACCCCGUUUUUUUCUCCCUU` has a bound/input enrichment of 0.636 ratio.
`UUUUGUGAGGGCUUGGGGGGUGGGGGGGAUGUAUGGAUGUGAUUAGCAGUUUUGACUGUUCAAAGGUUCCUCACUUUUCCCCCCGCUUUAAUUGGAUGCACUGACCUGGCCCAGGAAGAG` has a bound/input enrichment of 0.238 ratio.
`CCAGGCUUGGAUCCUGCACCGCUGUCCACUUCUGCAUCCUGUCCUUCGCCUCCCCGUCACACAGCUCCUGCAAACAUGAAGUGAAUAAAGUUGUGUGUGUGAAAUGGAACUGCCACAUAA` has a bound/input enrichment of 0.482 ratio.
With `GUUGGGCCAUGACCCCUAUAGAUUAGGUCAUGAUGCUUACAGGUUAGGACAAGACCCUUAUAGAUUAGGCCAUGAUCCCUACAGACUAACUCCUGAUCCCUAUAGGAUGUCACCUAGACC` the bound/input enrichment was 0.816 ratio.
The bound/input enrichment of `UUCAGGCACAACUGACUGGUUCACAGAAUUCCUUACAUAGUUACCUAUCAAAUGCAAGUGUAGUUAAUUUUCAGGAAACAACCAGGCAGUCCUCUUUAUCCUGUAGCUCUAUUGGAGAUU` is reported as 1.12 ratio.
`AUUACACUAAUACUGAAGUUAAAAUUAAAAGGAUAUCCAAGGUGAUGAUAAAAGUGUGUGUUGGUAGUUACUAAAAGAACUUUAGCUGUUAUUGCCUUGUAUUUCUAUCCCUUGUUUCAG` gave a bound/input enrichment of 0.367 ratio.
For `GGGAUGGCGGGGUGGGAGGGAUACGUGGCCGUUUUGAUGUUAUUGGCAUUAUUAAGUGUUCCAGGGAUUGUCUUGUCUUGAAUUUUUCCCAUUUUGUUGUUUUCCCCUUUAAUUGGAUGC`, the bound/input enrichment was 0.515 ratio.
The bound/input enrichment of `CUGAAGCUUUGUGUUUGGCUGCACCUGCAUAAGCUGCUACAAAUAGAAUAAAGAAUUUCAUAGCCUGUAUCUAUCAUUUUAGAUGCAUGGAAAAAAUGGGCUUUGCACACAAUGGGUUUG` is reported as 2.02 ratio.

Set 5
Target: FOS, bZIP domain (human)
Technique: DHFR protein complementation
Medium: yeast
Notes: single substitutions, most at no-binding floor
Reference: wild-type JUN-FOS pair
Reading: higher = stronger binding
Starting sequence: JUN, bZIP domain (human); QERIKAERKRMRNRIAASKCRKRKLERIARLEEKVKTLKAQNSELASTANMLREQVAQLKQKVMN; partner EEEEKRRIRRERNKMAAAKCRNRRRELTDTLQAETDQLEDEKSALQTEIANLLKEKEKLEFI
With `N42D` the binding fitness was -1.54 natural log.
For `K34V`, the binding fitness was -0.284 natural log.
`L59S` has a binding fitness of -1.09 natural log.
With `Q58F` the binding fitness was -0.162 natural log.
With `K34N` the binding fitness was -0.109 natural log.
`A57W` has a binding fitness of -0.2 natural log.
`S47C` has a binding fitness of -0.0254 natural log.
With `A46D` the binding fitness was -0.753 natural log.
For `T37E`, the binding fitness was 0.0721 natural log.
`L45T` gave a binding fitness of -1.34 natural log.
`E33C` has a binding fitness of -0.307 natural log.
`A49Y` gave a binding fitness of -0.442 natural log.

Set 6
Target: CCNE1, cyclin fold, Cln2 fusion (human)
Technique: yeast growth competition, sequencing
Medium: yeast
Notes: weak parent motif
Reference: not given
Reading: higher = stronger binding
Starting sequence: CDT1 docking peptide (human); PPARRRLRLSVDE
For `R8A`, “normalised enrichment score” read 0.955.
For `R6A`, “normalised enrichment score” read 0.303.
`L9A`: “normalised enrichment score” 0.495.
Under “normalised enrichment score”, `R5K` is recorded as 0.731.
For `P1A`, “normalised enrichment score” read 0.206.
`S10A` — result for “normalised enrichment score”: -0.189.
For `L7A`, “normalised enrichment score” read 1.13.

Set 7
Target: Sal-like protein 4, full length isoform A (SALL4, Homo sapiens, UniProt Q9UJQ4, residues 1-1053)
UniProt Q9UJQ4, sequence (whole entry, looked up): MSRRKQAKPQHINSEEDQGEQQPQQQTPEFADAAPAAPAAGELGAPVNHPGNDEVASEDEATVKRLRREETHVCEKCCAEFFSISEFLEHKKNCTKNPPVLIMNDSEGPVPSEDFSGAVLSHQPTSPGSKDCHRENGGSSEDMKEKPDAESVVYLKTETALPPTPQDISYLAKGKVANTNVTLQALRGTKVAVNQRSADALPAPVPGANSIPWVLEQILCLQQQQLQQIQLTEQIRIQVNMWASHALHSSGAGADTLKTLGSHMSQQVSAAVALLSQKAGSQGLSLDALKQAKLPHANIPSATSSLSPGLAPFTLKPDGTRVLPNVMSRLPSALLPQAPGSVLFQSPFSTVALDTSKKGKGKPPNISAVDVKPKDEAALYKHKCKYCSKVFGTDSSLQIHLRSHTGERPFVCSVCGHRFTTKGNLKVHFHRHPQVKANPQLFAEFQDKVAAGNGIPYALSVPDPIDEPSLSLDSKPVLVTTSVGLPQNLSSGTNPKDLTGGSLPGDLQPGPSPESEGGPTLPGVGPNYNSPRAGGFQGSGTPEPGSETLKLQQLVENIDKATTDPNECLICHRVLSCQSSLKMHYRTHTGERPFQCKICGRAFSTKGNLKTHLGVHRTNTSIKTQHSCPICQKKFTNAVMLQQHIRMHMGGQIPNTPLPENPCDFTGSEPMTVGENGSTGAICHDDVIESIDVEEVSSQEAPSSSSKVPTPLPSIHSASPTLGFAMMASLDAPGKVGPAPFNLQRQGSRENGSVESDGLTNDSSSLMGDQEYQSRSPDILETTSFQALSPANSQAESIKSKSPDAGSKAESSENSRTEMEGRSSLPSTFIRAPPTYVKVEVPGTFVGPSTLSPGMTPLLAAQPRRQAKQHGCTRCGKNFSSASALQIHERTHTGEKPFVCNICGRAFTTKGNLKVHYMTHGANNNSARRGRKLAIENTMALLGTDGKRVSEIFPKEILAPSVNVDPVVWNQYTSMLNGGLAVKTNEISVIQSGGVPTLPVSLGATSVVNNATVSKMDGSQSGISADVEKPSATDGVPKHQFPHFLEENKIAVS
Technique: universal PBM
Form: double-stranded DNA, one strand shown
Medium: in vitro
Tested at: 600 nM
Notes: 8-mer, flanks averaged, mean of replicates
Reading: higher = stronger binding
For `CCCGTCCA`, the E-score was -0.107.
`CGAAGTCA` has an E-score of 0.0362.
`CAACGCTG` gave an E-score of -0.176.
With `AGACAGAA` the E-score was 0.0313.
`AGGCTAGA` has an E-score of -0.0455.
`TCTTAAAA` gave an E-score of 0.25.
`AGGGTACT` gave an E-score of -0.21.
For `CCCAATTC`, the E-score was 0.02.
`AATGGCCG` has an E-score of -0.256.
With `ACTGTGGA` the E-score was -0.0714.
For `AAAACTTA`, the E-score was 0.326.
`ATCTCCGC` gave an E-score of -0.247.
For `ATCATCTA`, the E-score was 0.203.
The E-score of `AACGAAAC` is reported as 0.0398.
`AACGCTTG` gave an E-score of -0.0813.
`TGAAGTCA` has an E-score of 0.0481.
